# Results pooled from the literature.
# “And” joins repeats or separate records; there may be more than shown. ± gives the spread as reported.
# rep main protease: Replicase polyprotein 1ab, main protease (rep, Severe acute respiratory syndrome coronavirus 2, UniProt P0DTD1)
# rep papain-like protease: Replicase polyprotein 1ab, papain-like protease (rep, Severe acute respiratory syndrome coronavirus 2, UniProt P0DTD1)
Compound,target,test,test system,setting,inhibition
COc1cc(Oc2c(OC)cc(C)c(Br)c2O)c(C(=O)O)c(C)c1O,rep main protease,"enzyme activity, inhibitor, FRET",,10 µM,20.6%
O=C(NCCc1cccc(F)c1)[C@@H](c1cncnc1)N(C(=O)[C@H](F)Cl)c1ccc(S(F)(F)(F)(F)F)cc1,rep papain-like protease,"enzyme activity, inhibitor",,20 µM,< 1%
COc1cc(-c2oc3cc(OC(C)=O)c(OC)c(OC(C)=O)c3c(=O)c2OC)ccc1OC(C)=O,rep main protease,"enzyme activity, inhibitor, mass spectrometry",,concentration not given,inhibited
O=C(Oc1cncc(Cl)c1)c1cccs1,rep main protease,"enzyme activity, inhibitor",,50 µM,96.1%
COc1cc(OC)cc(C(=O)N(CCC(=O)N2CCNCC2)Cc2cccc(Cl)c2)c1,"Replicase polyprotein 1ab, nsp3 macrodomain (rep, Severe acute respiratory syndrome coronavirus 2, UniProt P0DTD1)","ADP-ribosylhydrolase activity, gel-based",,concentration not given,inhibited
C[C@](C(=O)NC1CCC(F)(F)CC1)(c1cncnc1)N(C(=O)[C@H](F)Cl)c1ccc(OC(F)(F)F)cc1,rep main protease,"enzyme activity, inhibitor",,8.333 µM,100%
CC1(C)C2CCC1(C)C(n1[se]c3ccccc3c1=O)C2 (stereo not drawn),rep main protease,"enzyme activity, inhibitor",,"40 µM, mean of repeats",99.2%
COc1ccc(-c2cc(=O)c3c(O)c(Oc4ccc(-c5cc(=O)c6c(O)cc(O)cc6o5)cc4)c(OC)cc3o2)cc1,rep papain-like protease,"enzyme activity, inhibitor",,10 µM,65.6 to 98%
COc1c(O[C@@H]2O[C@H](C(=O)O)[C@@H](O)[C@H](O)[C@H]2O)cc(O)c2c(=O)cc(-c3ccccc3)oc12,rep main protease,"enzyme activity, inhibitor",,50 µM,8.5%
O=C(CCl)N1CCN(S(=O)(=O)c2cccs2)CC1,rep main protease,"enzyme activity, inhibitor, fluorescence",,"50 µM, pH 7.2",102%
COC(=O)C[C@H](NC(=O)c1ccccc1[Se][Se]c1ccccc1C(=O)N[C@@H](CC(=O)OC)C(=O)OC)C(=O)OC,rep main protease,"enzyme activity, inhibitor",,"40 µM, mean of repeats",106%
Nc1cncc(-n2[se]c3ccccc3c2=O)c1,rep main protease,"enzyme activity, inhibitor",,0.3 µM,41.7%
O=C(NC1CCC(F)(F)CC1)C(c1cncnc1)N(C(=O)C(F)Cl)c1ccc(OC(F)(F)F)cc1 (stereo not drawn),rep main protease,enzyme activity,,0.309 µM,82.8% and 87% and 52.3%
O=C(NC1CCN(c2ncnc3[nH]cnc23)CC1)c1cccc(NS(=O)(=O)c2ccc(C(F)(F)F)cc2)c1,"Replicase polyprotein 1ab, nsp14 with nsp10 (rep, Severe acute respiratory syndrome coronavirus 2, UniProt P0DTD1)",exonuclease activity,SARS-CoV-2,200 µM,31.8%
O=c1cc(-c2ccc(O)cc2)oc2c(C3OC(CO)C(O)C(O)C3O)c(O)c(C3OC(CO)C(O)C(O)C3O)c(O)c12 (stereo not drawn),rep main protease,"enzyme activity, inhibitor",,8 µM,76.5%
O=C(O[C@@H]1Cc2c(O)cc(O)cc2O[C@@H]1c1ccc(O)c(O)c1)c1cc(O)c(O)c(O)c1,rep main protease,intracellular protease activity,HEK293T,100 µM,79.7 ± 1.7%
CC(NC(=O)c1ccccc1[Se][Se]c1ccccc1C(=O)NC(C)C(=O)O)C(=O)O (stereo not drawn),rep main protease,"enzyme activity, inhibitor",,40 µM,103%
COc1cc2[nH]c(=O)n(CCC(=O)NCc3ccc4c(c3)OCO4)c(=O)c2cc1OC,rep main protease,"enzyme activity, inhibitor",,100 µg/mL,0%
CC1C(n2[se]c3ccccc3c2=O)CC2CC1C2(C)C (stereo not drawn),rep main protease,"enzyme activity, inhibitor",,40 µM,102%
Cc1c(C(=O)N2c3ccccc3NC(=O)C2CC(=O)Nc2ccc(Cl)c(Cl)c2)oc2ccccc12 (stereo not drawn),rep main protease,"nsp5 protease activity, luciferase",HEK293T,10 µM,7.9 ± 2.7%
COC(=O)c1cc2c(=O)n3ccccc3nc2n1Cc1ccccc1,rep main protease,"enzyme activity, inhibitor",,100 µM,33%
COc1cccc(NC(=O)CSc2ccccc2C(=O)Nc2ccc3c(c2)NC(=O)C(C)O3)c1 (stereo not drawn),rep papain-like protease,"enzyme activity, inhibitor",,100 µg/mL,0%
O=C(NC1CCC(F)(F)CC1)C(c1cncnc1)N(C(=O)C(F)Cl)c1ccc(-c2cncs2)cc1 (stereo not drawn),rep main protease,enzyme activity,,25 µM,100% and 102%
C=C1CCC2C(C)(CO)C(O)CCC2(C)C1CC(SC(=S)N1CCN(Cc2cc(F)c(F)cc2F)CC1)C1=CCOC1=O (stereo not drawn),rep main protease,"enzyme activity, inhibitor, fluorescence",,100 µM,~70%
C[C@@H]1C[C@H]2[C@@H](C[C@H]1n1[se]c3ccccc3c1=O)C2(C)C,rep main protease,"enzyme activity, inhibitor",,"40 µM, mean of repeats",102%
C[C@](C(=O)NC1CCOCC1)(c1cncnc1)N(C(=O)[C@H](F)Cl)c1ccc(OC(F)(F)Cl)cc1,rep main protease,enzyme activity,,0.041 µM,94.1% and 90.7%
COC(=O)C[C@@H](C(=O)OC)n1[se]c2ccccc2c1=O,rep main protease,"enzyme activity, inhibitor",,"40 µM, mean of repeats",105%
O=c1c2ccccc2[se]n1-c1cccnc1,rep main protease,"enzyme activity, inhibitor",,0.3 µM,49.9%
CC(C)[C@@H]1CC[C@@H](C)C[C@H]1NC(=O)c1ccccc1[Se][Se]c1ccccc1C(=O)N[C@@H]1C[C@H](C)CC[C@H]1C(C)C,rep main protease,"enzyme activity, inhibitor",,40 µM,96.6% and 95.6%
C[C@@H](Cc1ccc(O)c(O)c1)[C@@H](C)Cc1ccc(O)c(O)c1,rep papain-like protease,"enzyme activity, inhibitor, FRET",,8 µM,30.7%

# A few entries again:
Compound,target,test,test system,setting,inhibition
C=C1CCC2C(C)(CO)C(O)CCC2(C)C1CC(SC(=S)N1CCN(Cc2cc(F)c(F)cc2F)CC1)C1=CCOC1=O (stereo not drawn),rep main protease,"enzyme activity, inhibitor, fluorescence",,100 µM,~70%
C[C@@H]1C[C@H]2[C@@H](C[C@H]1n1[se]c3ccccc3c1=O)C2(C)C,rep main protease,"enzyme activity, inhibitor",,"40 µM, mean of repeats",102%
